{"data": "Measured values from different studies", "note": "Each line is one published result; not all experiments were run side by side."}
{"Compound": "COC1CN([C@H]2CC[C@H]([C@@]3(C)Oc4c(Cl)cc(C(=O)NCc5c(SC)cc(C)[nH]c5=O)c(C)c4O3)CC2)C1", "test": "RNA-seq, item: DNASE2", "test system": "human, whole blood", "setting": "dose not given, 24 h", "how to read": "relative to: pretreatment baseline", "measurement": "log2 fold change", "value": 1.22}
{"Compound": "C=CC(=O)Nc1cccc(Cn2ncc3cnc(Nc4cnn(CCOC)c4)nc32)c1", "tested on": "NEK10 human", "test": "binding, KINOMEscan", "setting": "100 nM", "how to read": "lower = stronger binding", "measurement": "percent of control", "value": "91%"}
{"Compound": "Nc1ncc(-c2cc(-c3cnn(CC(F)(F)F)c3)ncc2F)nc1C(=O)NC1CNCC(F)C1 (centres unmarked)", "tested on": "BMX", "test": "KINOMEscan", "setting": "1 µM", "how to read": "relative to: DMSO control", "measurement": "remaining binding", "value": "91%"}
{"Compound": "CN1CCCNC(=O)c2cccc(c2)C(=O)NCCCN(C)CCCNc2cccc3c2C(=O)c2cccc(c2C3=O)NCCC1", "tested on": "SAS", "test": "RNA-Seq, item: IWS1 mRNA", "setting": "1 µM, 6 h", "how to read": "relative to: untreated cells", "measurement": "log2 fold change", "value": -0.65}
{"Compound": "Cc1ncsc1-c1ccc(C(C)NC(=O)C2CC(O)CN2C(=O)C(NC(=O)CCCCCCCCCCN2CCCC(Nc3ncc(Cl)c(Nc4ccccc4S(=O)(=O)C(C)C)n3)C2)C(C)(C)C)cc1 (centres unmarked)", "tested on": "22Rv1", "test": "RNA-seq, item: TUBD1 mRNA", "setting": "concentration not given", "how to read": "relative to: DMSO", "measurement": "log2 fold change", "value": -1.65}
{"Compound": "CNS(=O)(=O)Nc1nccc(Cc2c(C)c3ccc(Oc4ncccc4F)cc3oc2=O)c1F", "tested on": "SKNBE2", "test": "cell viability", "setting": "7 days", "measurement": "IC50", "value": "3.04 nM"}
{"Compound": "Cn1ncc2cc(-c3cncc(Cl)c3N3CCC4(CCNC4=O)CC3)ccc21", "tested on": "LS174T", "test": "gene expression, microarray, item: CA9 mRNA", "setting": "concentration not given, 24 h", "how to read": "relative to: untreated cells", "measurement": "log2 fold change", "value": 3.39}
{"Compound": "CCN(C(=O)c1cc(F)ccc1Oc1nncnc1N1CCC2(C1)CN([C@H](CCCN(C)CCOC)C(C)C)C2)C(C)C", "tested on": "J82", "test": "cell growth or viability", "setting": "72 h", "measurement": "GI50", "value": "> 10000 nM"}
{"note": "Some of these lines once more:"}
{"Compound": "CNS(=O)(=O)Nc1nccc(Cc2c(C)c3ccc(Oc4ncccc4F)cc3oc2=O)c1F", "tested on": "SKNBE2", "test": "cell viability", "setting": "7 days", "measurement": "IC50", "value": "3.04 nM"}
